{"data": "Measurements collected from several papers", "note": "Numbered parts are unrelated; each lists some results of a single study.", "chain of UniProt Q7L7X3 (whole entry, looked up)": "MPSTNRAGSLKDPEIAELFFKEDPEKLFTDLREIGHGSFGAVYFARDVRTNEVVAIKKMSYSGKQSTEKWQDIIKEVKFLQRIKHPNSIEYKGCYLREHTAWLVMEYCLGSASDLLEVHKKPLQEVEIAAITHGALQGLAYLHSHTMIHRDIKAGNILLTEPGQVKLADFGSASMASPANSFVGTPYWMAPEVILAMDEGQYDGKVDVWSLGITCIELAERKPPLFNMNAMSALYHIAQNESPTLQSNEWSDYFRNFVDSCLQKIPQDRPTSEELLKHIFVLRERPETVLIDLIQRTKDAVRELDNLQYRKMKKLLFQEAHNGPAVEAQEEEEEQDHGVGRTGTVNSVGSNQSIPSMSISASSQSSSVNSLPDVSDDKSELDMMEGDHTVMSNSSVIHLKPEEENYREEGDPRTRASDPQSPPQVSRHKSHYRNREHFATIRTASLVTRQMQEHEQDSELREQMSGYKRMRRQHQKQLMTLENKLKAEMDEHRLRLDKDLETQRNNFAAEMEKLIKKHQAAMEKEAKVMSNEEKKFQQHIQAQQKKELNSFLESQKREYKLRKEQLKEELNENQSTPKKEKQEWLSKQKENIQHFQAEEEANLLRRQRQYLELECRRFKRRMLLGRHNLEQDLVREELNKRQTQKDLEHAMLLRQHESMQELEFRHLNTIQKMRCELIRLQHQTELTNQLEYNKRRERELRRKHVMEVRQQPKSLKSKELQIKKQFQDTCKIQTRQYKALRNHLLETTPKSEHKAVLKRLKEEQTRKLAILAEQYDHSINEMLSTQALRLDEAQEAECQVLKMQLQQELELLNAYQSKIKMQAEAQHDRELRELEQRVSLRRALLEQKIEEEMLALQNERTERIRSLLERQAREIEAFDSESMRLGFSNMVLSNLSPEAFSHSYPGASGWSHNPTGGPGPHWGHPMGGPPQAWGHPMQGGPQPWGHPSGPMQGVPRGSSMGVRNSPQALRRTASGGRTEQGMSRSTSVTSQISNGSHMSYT", "chain of UniProt O14578 (whole entry, looked up)": "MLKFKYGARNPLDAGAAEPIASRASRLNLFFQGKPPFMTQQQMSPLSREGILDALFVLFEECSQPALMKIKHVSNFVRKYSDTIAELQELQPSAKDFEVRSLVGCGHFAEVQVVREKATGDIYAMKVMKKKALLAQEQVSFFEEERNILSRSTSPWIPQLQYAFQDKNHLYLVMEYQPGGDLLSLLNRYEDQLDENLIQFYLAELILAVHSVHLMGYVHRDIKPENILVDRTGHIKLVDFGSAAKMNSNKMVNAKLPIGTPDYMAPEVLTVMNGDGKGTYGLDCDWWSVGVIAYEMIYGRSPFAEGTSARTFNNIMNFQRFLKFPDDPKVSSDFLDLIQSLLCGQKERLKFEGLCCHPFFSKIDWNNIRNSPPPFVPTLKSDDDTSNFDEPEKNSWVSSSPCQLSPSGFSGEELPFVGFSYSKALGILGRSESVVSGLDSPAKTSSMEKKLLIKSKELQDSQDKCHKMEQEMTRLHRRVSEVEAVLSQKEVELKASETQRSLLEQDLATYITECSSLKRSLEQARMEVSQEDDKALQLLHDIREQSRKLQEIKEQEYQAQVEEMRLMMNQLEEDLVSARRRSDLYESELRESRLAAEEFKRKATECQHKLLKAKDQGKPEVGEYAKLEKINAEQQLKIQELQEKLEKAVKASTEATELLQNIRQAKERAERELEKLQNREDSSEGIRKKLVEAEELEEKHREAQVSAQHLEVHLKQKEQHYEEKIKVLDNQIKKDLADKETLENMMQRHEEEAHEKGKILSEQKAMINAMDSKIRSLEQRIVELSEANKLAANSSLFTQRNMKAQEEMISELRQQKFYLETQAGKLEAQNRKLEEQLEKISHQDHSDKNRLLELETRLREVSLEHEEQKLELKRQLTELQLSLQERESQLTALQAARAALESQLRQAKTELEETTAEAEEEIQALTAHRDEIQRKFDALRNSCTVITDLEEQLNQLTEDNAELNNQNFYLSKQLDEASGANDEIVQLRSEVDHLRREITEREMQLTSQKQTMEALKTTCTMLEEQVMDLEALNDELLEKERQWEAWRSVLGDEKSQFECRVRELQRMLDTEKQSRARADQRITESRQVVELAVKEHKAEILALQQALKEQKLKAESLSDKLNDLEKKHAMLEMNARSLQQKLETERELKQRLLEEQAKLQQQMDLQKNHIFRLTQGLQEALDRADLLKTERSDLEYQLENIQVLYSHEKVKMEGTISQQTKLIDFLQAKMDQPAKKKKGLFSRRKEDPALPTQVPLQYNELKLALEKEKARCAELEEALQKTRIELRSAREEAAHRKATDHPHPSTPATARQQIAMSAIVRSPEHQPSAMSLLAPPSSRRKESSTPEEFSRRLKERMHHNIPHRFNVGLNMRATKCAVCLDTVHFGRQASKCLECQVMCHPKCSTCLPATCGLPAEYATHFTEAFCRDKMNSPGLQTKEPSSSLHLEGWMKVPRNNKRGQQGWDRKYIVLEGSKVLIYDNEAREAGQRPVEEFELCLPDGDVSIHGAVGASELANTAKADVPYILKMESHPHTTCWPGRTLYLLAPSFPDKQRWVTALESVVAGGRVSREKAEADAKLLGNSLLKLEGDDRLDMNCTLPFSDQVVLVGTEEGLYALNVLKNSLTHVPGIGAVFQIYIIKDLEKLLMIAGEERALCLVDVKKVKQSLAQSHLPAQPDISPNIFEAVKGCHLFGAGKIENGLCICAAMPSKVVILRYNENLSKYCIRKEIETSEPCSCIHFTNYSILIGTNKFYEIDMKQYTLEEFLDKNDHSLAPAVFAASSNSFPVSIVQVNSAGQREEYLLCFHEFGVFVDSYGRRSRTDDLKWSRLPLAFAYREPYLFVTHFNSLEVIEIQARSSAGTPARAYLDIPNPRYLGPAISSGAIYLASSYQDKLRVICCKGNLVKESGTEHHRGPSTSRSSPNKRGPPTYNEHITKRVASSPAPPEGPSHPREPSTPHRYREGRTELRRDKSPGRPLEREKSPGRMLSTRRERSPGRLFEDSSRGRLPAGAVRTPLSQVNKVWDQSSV", "chain of UniProt O96017 (whole entry, looked up)": "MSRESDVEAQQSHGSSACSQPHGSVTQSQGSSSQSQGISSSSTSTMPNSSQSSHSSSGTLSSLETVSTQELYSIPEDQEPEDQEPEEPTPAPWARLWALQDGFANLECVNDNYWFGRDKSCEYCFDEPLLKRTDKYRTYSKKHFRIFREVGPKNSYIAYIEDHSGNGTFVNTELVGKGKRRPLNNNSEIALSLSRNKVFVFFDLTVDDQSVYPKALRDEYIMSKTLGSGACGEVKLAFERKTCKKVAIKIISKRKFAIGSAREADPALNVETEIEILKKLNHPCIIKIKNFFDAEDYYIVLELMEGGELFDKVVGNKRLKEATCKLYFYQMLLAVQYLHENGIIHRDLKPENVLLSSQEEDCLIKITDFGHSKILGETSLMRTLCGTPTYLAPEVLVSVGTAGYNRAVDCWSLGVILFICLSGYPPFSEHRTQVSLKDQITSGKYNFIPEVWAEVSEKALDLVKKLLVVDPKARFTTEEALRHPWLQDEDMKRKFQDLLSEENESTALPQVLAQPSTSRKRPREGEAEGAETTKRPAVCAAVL", "chain of UniProt Q6XUX3 (whole entry, looked up)": "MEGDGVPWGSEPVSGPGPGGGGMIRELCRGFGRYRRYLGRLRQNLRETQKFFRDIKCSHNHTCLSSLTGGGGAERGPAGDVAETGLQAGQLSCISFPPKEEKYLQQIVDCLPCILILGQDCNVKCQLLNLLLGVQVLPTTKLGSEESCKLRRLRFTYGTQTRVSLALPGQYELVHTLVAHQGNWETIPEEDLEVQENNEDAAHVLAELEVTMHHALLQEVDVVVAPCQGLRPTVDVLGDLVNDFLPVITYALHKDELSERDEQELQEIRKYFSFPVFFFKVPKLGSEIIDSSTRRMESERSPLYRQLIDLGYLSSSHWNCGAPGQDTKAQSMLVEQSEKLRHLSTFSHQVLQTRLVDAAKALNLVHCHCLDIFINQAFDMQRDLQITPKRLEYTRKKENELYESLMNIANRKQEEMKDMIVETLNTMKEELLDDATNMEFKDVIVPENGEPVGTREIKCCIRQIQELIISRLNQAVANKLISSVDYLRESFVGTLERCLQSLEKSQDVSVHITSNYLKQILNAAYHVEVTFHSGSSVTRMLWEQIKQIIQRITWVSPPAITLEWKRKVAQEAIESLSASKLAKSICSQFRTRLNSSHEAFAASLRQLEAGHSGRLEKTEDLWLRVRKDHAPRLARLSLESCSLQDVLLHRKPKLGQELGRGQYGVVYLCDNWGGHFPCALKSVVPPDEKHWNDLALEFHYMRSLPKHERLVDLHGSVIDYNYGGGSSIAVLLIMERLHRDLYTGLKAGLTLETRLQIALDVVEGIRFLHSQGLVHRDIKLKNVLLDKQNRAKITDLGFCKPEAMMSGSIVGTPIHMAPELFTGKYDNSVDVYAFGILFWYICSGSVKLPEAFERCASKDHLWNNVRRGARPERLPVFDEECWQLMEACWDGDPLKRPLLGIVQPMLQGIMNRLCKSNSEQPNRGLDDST", "chain of UniProt P08631 (whole entry, looked up)": "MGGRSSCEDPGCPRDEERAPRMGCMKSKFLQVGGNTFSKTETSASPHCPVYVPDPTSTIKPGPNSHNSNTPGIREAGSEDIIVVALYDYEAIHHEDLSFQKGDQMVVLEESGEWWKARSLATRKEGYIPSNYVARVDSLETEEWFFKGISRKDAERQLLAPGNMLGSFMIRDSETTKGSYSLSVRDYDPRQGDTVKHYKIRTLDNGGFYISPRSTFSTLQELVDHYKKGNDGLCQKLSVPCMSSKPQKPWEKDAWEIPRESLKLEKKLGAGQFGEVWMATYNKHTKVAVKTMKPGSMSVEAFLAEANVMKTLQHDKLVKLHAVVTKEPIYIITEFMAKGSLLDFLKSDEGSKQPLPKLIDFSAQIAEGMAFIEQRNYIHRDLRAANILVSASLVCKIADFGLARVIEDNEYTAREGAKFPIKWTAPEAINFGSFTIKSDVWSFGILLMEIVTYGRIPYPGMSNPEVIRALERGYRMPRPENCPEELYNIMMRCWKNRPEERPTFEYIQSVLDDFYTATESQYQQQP"}
{"data": "Set 1", "SMILES": "CC#CC(=O)N1CCC[C@H]1c1nc(-c2ccc(C(=O)Nc3ccccn3)cc2)c2c(N)nccn12", "observed": "enzyme activity", "mode": "inhibitor", "concentration": "1 µM"}
{"target": "TLK1 (Homo sapiens, UniProt Q9UKI8)", "inhibition [%]": 8}
{"target": "STK38 (Homo sapiens, UniProt Q15208)", "inhibition [%]": 4}
{"target": "CHEK2 (Homo sapiens, UniProt O96017)", "inhibition [%]": 0}
{"target": "MAP3K15 (Homo sapiens, UniProt Q6ZN16)", "inhibition [%]": 0}
{"target": "GRK3 (Homo sapiens, UniProt P35626)", "inhibition [%]": 0}
{"target": "PIKFYVE (Homo sapiens, UniProt Q9Y2I7)", "inhibition [%]": 0}
{"target": "SBK3 (Homo sapiens, UniProt P0C264)", "inhibition [%]": 15}
{"target": "MKNK2 (Homo sapiens, UniProt Q9HBH9)", "inhibition [%]": 10}
{"target": "ACVRL1 (Homo sapiens, UniProt P37023)", "inhibition [%]": 2}
{"target": "TAOK2 (Homo sapiens, UniProt Q9UL54)", "inhibition [%]": 27}
{"target": "SGK2 (Homo sapiens, UniProt Q9HBY8)", "inhibition [%]": 0}
{"data": "Set 2", "species": "human", "sample": "microsomes or S9", "concentration": "2 µM", "time": "0.5 h"}
{"SMILES": "Cn1ncnc1CN(Cc1ccc2c(c1)OCO2)C1CCCCC1", "remaining compound [%]": 2.66}
{"SMILES": "Cc1oc(-c2cccc(F)c2F)nc1CN(C)CC1CCCNC1 (centres unmarked)", "remaining compound [%]": 93.5}
{"SMILES": "CCC(=O)N(CCC1(c2ccc(C)cc2)CCOC(C)(C)C1)Cc1ccccc1 (centres unmarked)", "remaining compound [%]": 55.4}
{"SMILES": "CCc1c(C(=O)OC(C)c2nnc(C)o2)[nH]c(C)c1C(C)=O (centres unmarked)", "remaining compound [%]": 88.9}
{"SMILES": "Cc1ccc(Cn2c(=O)c3ccc(C(=O)NC(C)C)cc3n3c(=O)n(C)nc23)cc1", "remaining compound [%]": 53.4}
{"SMILES": "CN(C(=O)c1cc2c(s1)-c1ccsc1CC2)C1CCCCC1", "remaining compound [%]": 1.74}
{"SMILES": "CCc1c(OCC(=O)Nc2cc(OC)c(OC)c(OC)c2)c(=O)ccn1CCO", "remaining compound [%]": 75.1}
{"SMILES": "Clc1ccc(OCc2nnc(-c3cccnc3)[nH]2)cc1", "remaining compound [%]": 76.6}
{"SMILES": "COC(=O)C1CCN(C(=O)c2ccccc2N(C)S(C)(=O)=O)CC1", "remaining compound [%]": 46.9}
{"data": "Set 3", "SMILES": "COc1cc2ncnc(Nc3ccc(OCc4ccccc4)cc3)c2cc1OC", "observed": "enzyme activity", "mode": "inhibitor", "concentration": "0.5 µM", "reference": "control"}
{"target": "MAP4K5 (Homo sapiens, UniProt Q9Y4K4)", "remaining activity [%]": 65.4}
{"target": "PLK1 (Homo sapiens, UniProt P53350)", "remaining activity [%]": 101}
{"target": "PDGFRB (Homo sapiens, UniProt P09619)", "remaining activity [%]": 93}
{"target": "RIPK2 (Homo sapiens, UniProt O43353)", "remaining activity [%]": 61.6}
{"target": "ACVR1 (Homo sapiens, UniProt Q04771)", "remaining activity [%]": 101}
{"target": "FGFR2 (Homo sapiens, UniProt P21802)", "remaining activity [%]": 103}
{"target": "RAF1 (Homo sapiens, UniProt P04049)", "remaining activity [%]": 61}
{"target": "SGK3 (Homo sapiens, UniProt Q96BR1)", "remaining activity [%]": 105}
{"target": "MAP3K9 (Homo sapiens, UniProt P80192)", "remaining activity [%]": 96.5}
{"target": "PRKD3 (Homo sapiens, UniProt O94806)", "remaining activity [%]": 95.3}
{"target": "DYRK2 (Homo sapiens, UniProt Q92630)", "remaining activity [%]": 111}
{"target": "ULK1 (Homo sapiens, UniProt O75385)", "remaining activity [%]": 107}
{"target": "INSRR (Homo sapiens, UniProt P14616)", "remaining activity [%]": 99.9}
{"target": "DSTYK (Homo sapiens, UniProt Q6XUX3)", "remaining activity [%]": 95.9}
{"target": "VRK1 (Homo sapiens, UniProt Q99986)", "remaining activity [%]": 89}
{"target": "TNK2 (Homo sapiens, UniProt Q07912)", "remaining activity [%]": 53.1}
{"target": "TAOK1 (Homo sapiens, UniProt Q7L7X3)", "remaining activity [%]": 94.4}
{"target": "NTRK2 (Homo sapiens, UniProt Q16620)", "remaining activity [%]": 92.5}
{"target": "HCK (Homo sapiens, UniProt P08631)", "remaining activity [%]": 74.5}
{"target": "PHKG2 (Homo sapiens, UniProt P15735)", "remaining activity [%]": 97.4}
{"data": "Set 4", "Compound": "COc1cc(-c2cn(C3CCc4c(F)cccc4N(CC(F)(F)F)C3=O)nn2)ccc1-n1cnc(C)c1 (centres unmarked)", "observed": "cell-free assay", "method": "competition with immobilised ligand", "concentration": "1 µM"}
{"target": "Tyrosine-protein kinase ABL1, phosphorylated (ABL1, Homo sapiens, UniProt P00519, M351T)", "remaining binding": "95%"}
{"target": "KIT (Homo sapiens, UniProt P10721)", "remaining binding": "100%"}
{"target": "Ribosomal protein S6 kinase alpha-3, N-terminal kinase domain (RPS6KA3, Homo sapiens, UniProt P51812)", "remaining binding": "100%"}
{"target": "TAOK1 (Homo sapiens, UniProt Q7L7X3)", "remaining binding": "100%"}
{"target": "PRKCD (Homo sapiens, UniProt Q05655)", "remaining binding": "100%"}
{"target": "EGFR (Homo sapiens, UniProt P00533, L861Q)", "remaining binding": "100%"}
{"target": "EGFR (Homo sapiens, UniProt P00533, G719S)", "remaining binding": "90%"}
{"target": "ERBB3 (Homo sapiens, UniProt P21860)", "remaining binding": "98%"}
{"target": "Tyrosine-protein kinase ABL1, non-phosphorylated (ABL1, Homo sapiens, UniProt P00519)", "remaining binding": "94%"}
{"target": "CIT (Homo sapiens, UniProt O14578)", "remaining binding": "100%"}
{"target": "MAP2K7 (Homo sapiens, UniProt O14733)", "remaining binding": "100%"}
{"target": "EPHB1 (Homo sapiens, UniProt P54762)", "remaining binding": "100%"}
{"target": "TNIK (Homo sapiens, UniProt Q9UKE5)", "remaining binding": "94%"}
{"note": "Excerpt of the above (set 1):"}
{"target": "GRK3 (Homo sapiens, UniProt P35626)", "inhibition [%]": 0}
{"target": "SGK2 (Homo sapiens, UniProt Q9HBY8)", "inhibition [%]": 0}
{"target": "CHEK2 (Homo sapiens, UniProt O96017)", "inhibition [%]": 0}
{"target": "MAP3K15 (Homo sapiens, UniProt Q6ZN16)", "inhibition [%]": 0}
{"target": "PIKFYVE (Homo sapiens, UniProt Q9Y2I7)", "inhibition [%]": 0}
{"target": "MKNK2 (Homo sapiens, UniProt Q9HBH9)", "inhibition [%]": 10}
{"target": "SBK3 (Homo sapiens, UniProt P0C264)", "inhibition [%]": 15}
{"target": "TLK1 (Homo sapiens, UniProt Q9UKI8)", "inhibition [%]": 8}
